Measured values from different studies.
Values joined by “and” are separate records of one study, mostly repeats; a detail may differ. Numbers after ± are the reported error.

Compound	test	system	setting	measurement	value
C[C@H](/C=C/[C@H](C)C(C)(C)O)[C@H]1CC[C@H]2/C(=C/C=C3C[C@@H](O)C[C@H](O)C3)CCC[C@]12C	–	patients with refractory advanced malignancies	MTD not assessed, added: gemcitabine weekly	highest safe dose	7 µg/kg
C=C(CN(C(=O)c1c(C(F)F)nn(C)c1F)C1CC1)c1ccc(Cl)cc1Cl	static acute toxicity test	zebrafish (Brachydanio rerio)	0.578 mg a.i./L, 96 h	mortality	0%
O=[N+]([O-])NC1=NCCN1Cc1ccc(Cl)nc1	–	whole cow milk	2000 nM nominal	dose fraction in skim milk	96.3%
CCc1ccc(CC/C=C/c2ccc3c(c2)C(=O)CC3)cc1	–	Sprague-Dawley rat, male	oral, 120 mg/kg/day, 14 days	MCHC	310 g/L
CC(=O)c1c(C)c2cnc(Nc3ccc(C4CCN(CCS(C)(=O)=O)CC4)cn3)nc2n(C2CCCC2)c1=O	–	beagle dog	–	maximum tolerated dose	≥ 180000 µg/kg
C[C@@H]1OC(=O)NN=C1c1ccc(-c2ccc(F)cc2)c(C(F)(F)F)c1	phase I trial, measured: Presyncope all grades	human patients	5 mg loading then 0.25 mg daily	patients with adverse event	0%
Cn1c(-c2ccc(C(N)=O)cc2F)nnc1C(C)(C)Oc1c(F)cc(Cl)cc1F	–	human	oral, 6 mg, single ascending dose	subjects with drug-related TEAE	33.3%
COc1cc2c(Oc3ccc4[nH]c(C)cc4c3F)ccnc2cc1OCC1(N)CC1	–	paediatric recurrent refractory sarcoma	12 mg	Leukopenia incidence	36.4%
C[C@]1(O)C[C@@](N)(c2ccc(-c3nc4n(c3-c3ccccc3)COc3ccncc3-4)cc2)C1	–	human, advanced or metastatic solid tumours	dose not given, all patients	patients with grade ≥3 TEAE	88.2%
Cn1cc(-c2nc(N[C@@H]3CCCC[C@@H]3N)c(F)c3c2C(=O)NC3)cn1	measured: Rectal haemorrhage	patients with relapsed or refractory AML	oral, dose not given, all doses	hemorrhagic adverse events	9%
COc1cc(C(=O)NC2CCN(C)CC2)c(F)cc1Nc1ncc(C(F)(F)F)c(Oc2cccc3c2C(=O)N(C)C3)n1	–	human patients, plasma	oral, 300 mg once daily repeated, geometric mean	mean residence time at steady state	31.9 h
C=CC(=O)N1CC[C@H](n2nc(C#Cc3cc(OC)cc(OC)c3)c3c(N)ncnc32)C1	–	patients with advanced solid tumours	oral, dose not given, Dysgeusia, any grade, QD, added: ferric citrate hydrate	adverse drug reaction incidence	0%
[131I-].[Na+]	–	hyperthyroidism patients	185 MBq, long-term follow-up	atrial fibrillation incidence	0.4%
O=C(Nc1ccccc1)C1CCN(C(=O)Oc2cccnc2)CC1	adverse event reporting	healthy women	oral, 100 mg	subjects with Phlebitis adverse event	7.7%
CN[C@@H](C)C(=O)N[C@H]1CN(S(=O)(=O)c2cccc(S(=O)(=O)N3CC[C@H]4CC[C@@H](C(=O)NC(c5ccccc5)c5ccccc5)N4C(=O)[C@@H](NC(=O)[C@H](C)NC)C3)c2)CC[C@H]2CC[C@@H](C(=O)NC(c3ccccc3)c3ccccc3)N2C1=O	–	patients with advanced solid tumours	45 mg, phase I monotherapy	treatment-related ALT elevation incidence	20%
CO[C@H]1C[C@@H]2CC[C@@H](C)[C@@](O)(O2)C(=O)C(=O)N2CCCC[C@H]2C(=O)O[C@H]([C@H](C)C[C@@H]2CC[C@@H](OC(=O)NCCOCCOCCOCCOCCOCCOCCOCCOCCC(=O)N3CCc4cc(Cn5nc(-c6ccc7oc(N)nc7c6)c6c(N)ncnc65)ccc4C3)[C@H](OC)C2)C[C@@H](O)[C@H](C)/C=C(\C)[C@@H](O)[C@@H](OC)C(=O)[C@H](C)C[C@H](C)/C=C/C=C/C=C/1C	–	patients with advanced solid tumours	intravenous, dose not given, grade ≥3	incidence of Nausea TEAE	3.5%
COc1ccc(-c2c(-c3ccc(C#N)c(F)c3)nc(N3CCC(N)CC3)n(C)c2=O)cc1F	measured: Nausea	relapsed/refractory marginal zone lymphoma patients	oral, 60 mg, grade 3 to 4, dose expansion	treatment-related adverse event incidence	0%
Clc1cc2c(cc1Cl)Oc1c(ccc(Cl)c1Cl)O2	–	whole cow milk	20 nM nominal	dose fraction in milk fat	84%
O=C(O)CCCOc1ccc(F)cc1-c1cc(-c2ccccc2C(F)(F)F)n(-c2ccccc2)n1	–	female Crl:CD(SD) rats	intravenous, 25 µg/kg, 14 d	MCV	54.3 fL and 54.2 fL and 54 fL and 54.1 fL and 55.4 fL
CN(C(=O)n1cnc(-c2ccc[n+]([O-])c2)c1)C1CCCCC1	–	Wistar rat, midbrain	oral, 10 mg/kg, 1 h, single dose	concentration	368 ± 40.8 ng/g
CC(C)C[C@H](NC(=O)[C@H](CCCCN)NC(=O)OCC1c2ccccc2-c2ccccc21)C(=O)N[C@H](C(=O)N[C@@H](Cc1ccccc1)C(=O)N[C@@H](Cc1ccccc1)C(=O)N[C@@H](CCCCN)C(=O)NCC(=O)N[C@@H](Cc1ccccc1)C(=O)N[C@@H](C)C(=O)N[C@@H](Cc1c[nH]c2ccccc12)C(=O)N[C@@H](CC(N)=O)C(=O)N[C@H](C(=O)N[C@H]1CSSC[C@@H](C(=O)N[C@@H](Cc2c[nH]cn2)C(=O)N[C@@H](CCCNC(=N)N)C(=O)N[C@@H](CCCNC(=N)N)C(=O)N[C@@H](C)C(=O)N[C@@H](CC(N)=O)C(N)=O)NC(=O)[C@H](C(C)C)NC(=O)[C@H](CCCNC(=N)N)NC(=O)[C@H](C(C)C)NC(=O)CNC(=O)[C@H](CC(N)=O)NC(=O)[C@H](CCCNC(=N)N)NC(=O)[C@H](Cc2ccc(O)cc2)NC(=O)[C@H](C(C)C)NC1=O)C(C)C)C(C)C	HPLC	mouse mammary gland homogenate	2560 µM, 16.00 h, 37 °C, 50 mg/mL tissue	remaining peptide	56.8% and 54% and 52.1%
Cn1cncc1-c1c(F)cncc1NC(=O)c1c(N)nn2cc(F)cnc12	–	human patients	oral, 180 mg once daily, 21 days	dose-limiting toxicity platelet decrease	0%
C[C@]1(CO)Cc2ncn(-c3ccc(C#N)c(Cl)c3)c2C(=O)O1	–	human, plasma	0.7 mg single dose, geometric mean	half-life	4.5 h
CC(C)[C@@H]1CC[C@@H](C)C[C@@H]1O	acute oral toxicity OECD	Swiss albino mice, serum	oral, 300 mg/kg	cholesterol	67.5 ± 3.95 mg/dL
